Assay results pooled from the literature.
A part holds a random share of what one study measured. Changes are numbered by the printed parent chain.

Series 1 — technique: DHFR PCA, deep sequencing; matrix: yeast; with: (+)-ABA 58 µM; reference: wild-type fitted maximum; reading: higher = stronger binding
Target: ABI1, truncated, D143A, DHFR fusion (Arabidopsis thaliana)
Setting: methotrexate growth selection, single substitutions
Parent: PYL1, truncated, DHFR fusion (Arabidopsis thaliana); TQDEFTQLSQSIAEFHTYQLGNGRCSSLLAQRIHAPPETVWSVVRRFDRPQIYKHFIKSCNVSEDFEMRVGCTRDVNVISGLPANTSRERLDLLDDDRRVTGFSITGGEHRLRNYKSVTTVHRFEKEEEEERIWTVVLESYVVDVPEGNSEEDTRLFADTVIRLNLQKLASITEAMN
Variant	relative binding score [%]
E128K	90.2
E14P	7.12
Y141W	25.8
E139G	2.47
K58R	85.5
R32V	89.3
N114G	91.4
A84E	14
V118F	37.7
V161H	14.5
Q51Y	36.8
E125G	87.5
S171Q	84.7
F66G	85.7
I12L	63.8

Series 2 — technique: aptamer microarray, sandwich; form: DNA with 2'F-ANA; matrix: in vitro; tested at: 200 nM; with: Cy3 exosite-II aptamer, 400 nM; reading: higher = stronger binding; strand: GGTTGGTGTGGTTGG
Target: Prothrombin, mature alpha-thrombin (F2, Homo sapiens, UniProt P00734)
Setting: whole 15-mer aptamer, many near background
Modification	mean fluorescence intensity [a.u.]
2'F-ANA at 1 3 5 6 8 9 11 12	123
2'F-ANA at 4 8 9 14 15	88.9
2'F-ANA at 3 4 5 6 12 13 14	60
2'F-ANA at 1 2 5 6 7 9 10 12 14 15	50
2'F-ANA at 1 2 4 5 6 8 9 13 14	56.8
2'F-ANA at 2 3 4 5 8 13 14 15	50.2
2'F-ANA at 7 8 9 10 11 12 14	319
2'F-ANA at 4 7 8 12 14 15	190
2'F-ANA at 1 3 4 5 9 10 11	72.5
2'F-ANA at 1 2 3 9 10 11 15	69
2'F-ANA at 1 2 3 5 6 9 12 13	82
2'F-ANA at 2 4 8 9 10 11 15	98.1
2'F-ANA at 1 3 5 6 7 9 13 14 15	45.9
2'F-ANA at 4 6 7 9 11 12 14	96.6
2'F-ANA at 1 2 4 7 11 12 14	61.6
2'F-ANA at 5 6 9 11 12 13 14 15	48.7
2'F-ANA at 1 3 9 14	101
2'F-ANA at 1 4 5 7 10 13	43.3
2'F-ANA at 1 2 5 7 11 12 13 14	49.5
2'F-ANA at 2 7 8 9 10 13 14	109
2'F-ANA at 1 2 4 5 8 10 13 15	85.6
2'F-ANA at 3 6 7 9 11	801
2'F-ANA at 3 4 5 6 10 12 13 14 15	53.3

Series 3 — target: CCNE1, cyclin fold, Cln2 fusion (human); technique: yeast growth competition, sequencing; matrix: yeast; setting: strong parent motif; reference: not given; reading: higher = stronger binding
Parent: PKMYT1 docking peptide (human); SFEPRNLLSLFED
Variant	normalised enrichment score
SFEPRNLLSLCED [F11C]	-0.227
SFEPRNLLRLFED [S9R]	2.07
SFEMRNLLSLFED [P4M]	1.86
SFEPRNLLSSFED [L10S]	1.89
SFEPRNLLDLFED [S9D]	1.55
SFEPRNLLSLPED [F11P]	0.237
SFEPDNLLSLFED [R5D]	1.16
SFVPRNLLSLFED [E3V]	3.02
SFEPRNLLSPFED [L10P]	0.346
SFEPRNLLVLFED [S9V]	1.83
SFEPSNLLSLFED [R5S]	1.06
STEPRNLLSLFED [F2T]	1.3
SFEPRNLLSLFHD [E12H]	1.65
SFEPRSLLSLFED [N6S]	1.32
SFEPRNLLSLFEE [D13E]	1.77
SFEPRNLLSLFPD [E12P]	0.575
SFEWRNLLSLFED [P4W]	1.16

Series 4 — technique: RNA Bind-n-Seq; form: RNA; matrix: in vitro; tested at: 365 nM; reference: no-protein control; reading: higher = stronger binding
Target: RNA binding protein fox-1 homolog 2, RRM domain, GST-SBP tag (RBFOX2, Homo sapiens, UniProt O43251-10, residues 100-194)
Setting: natural RNA segment, single round, ends assumed
All sequences stand within: GGGAGUUCUACAGUCCGACGAUC … UGGAAUUCUCGGGUGCCAA
Residues (chain): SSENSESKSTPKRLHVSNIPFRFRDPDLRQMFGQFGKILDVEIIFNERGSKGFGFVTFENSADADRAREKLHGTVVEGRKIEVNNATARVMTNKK
Strand	RBNS enrichment (R)
UGUUGUGGUAGGCAGUCCUGUGCAUUUUAGAAUGUUUGGCAUUAUCUCUGGCCUCCCCCACAAGAUGCCAGUAGCAAUCUUCUUCCCGAAGCUGUGACAAUCAGAAAUGU	0.47
ACUGGUACACUUGAUCUUAUGUCCAUAUGAAAGUGCAAAUCUUUAUUAAUUUGGAUUGCCUGAGCAGUGUGUAUCCCAUGAUGAUGAAGGGAAAUGGAGAGAUUUUUCCU	0.274
GCAGAAGCCAAAUUUUUUGUAUAUUAAAGCACCAAAUUCAUGUACAGCAUGCAUCACGGAUCAAUAGACUGUACUUAUUUUCCAAUAAAAUUUUCAAACUUUGUACUGUU	2.2
GUUCUGUAAACAGAUGCAGCCUCCUGGAGAAUGAGGCCCCAGGUUCAAACCAGAAGACAUUUGUGGAUAAAUCUGAACUCACUUCCUGUGUGUAACUUCUAACUUCACUG	0.421
UCUAUUCUGUACUGUGACUUUAGUUCAGGAAGUUUUGUUUUGUGUUUUAAAUAAAAGGAAAGAGCAAGUUUGCUCAGUCAAGUGAUCAGAUCCCGAAUCUAGAUUCCCAG	0.392
CCGUGCAAGCAUUCCAUUCGGCAGGGAGGAUCAGUUCCUUAGCUCCCUGCCUUAACCUAGGACCAACCUGGGACCUGACCUGUGAGGACUCUGUGCUGACCUUAUUCUUG	1.1
UUAAUUCAGUCUCAGCUGCUGAAAUUUGGAAAGGACCAAAUUGCUUUACAGUUUUUUUCUUUGUGUAGUAUCUUGAAAUCCUGGAAAAUUCUAUGGAAUAGUUCUGUAUA	0.638
CCUUGGUGGAGUCCAAAUGAUUUUUCUGUACCAUAUUGUUCUCUUACACAUACGUAUGUUAGGAAAAUAGGCACACUUUCAAAGAGAAUGUUCUCUUACACAUACGUAUG	0.275
UAGCUAUGGGUUUGGAACACUGGACUUGACUAUGGGGUGCUGGGAGUCAAGUCUCAGCUUUACCACUAACUAGCUGUGUGGCCUUGAGCAAAUACUAUUACUUCUCUGAG	0.277
CUCUCUUCUGGACCAAUUCCUUAACCUUGGGAAAGCUCAGGGCCUAGUAUCAGGGUGGGUGAUAGAACCCGAAAUGGAAGAGGACGGGAAAGUGCCUGGGCUGUGCUUGU	3.2
UUUAACUAGGUGCGGUGGCUACUAAAGUUCGAAGGCACGAUAUGCGUGUCCAUCCUUACCAAAGGAUUGUGACCGCAGACCGAGGCGCCACCGGCAACUAACCUAUGACC	0.308
CCCCUCCUUUUUAUUUUUUCCUUUAAAAACAUUUCAGUUAAAUUAAGCUACUGAUUUGGAUUUGUUUUAUCGUAUCCUAAAGUCUUUGUUGUUGAAAUGAAAGGUAUUUU	0.536

Series 5 — technique: RNA Bind-n-Seq; form: RNA; matrix: in vitro; tested at: not given; setting: RNA with constant flanks, ends assumed; reference: input RNA pool; reading: higher = stronger binding
Target: RING finger protein unkempt homolog, zinc fingers 1-6, GST-SBP tag (UNK, Homo sapiens, UniProt Q9C0B0, residues 30-357)
All sequences stand within: GGGAGUUCUACAGUCCGACGAUC … CAACAGAGGAUUGAGCAUCA
Target sequence (chain): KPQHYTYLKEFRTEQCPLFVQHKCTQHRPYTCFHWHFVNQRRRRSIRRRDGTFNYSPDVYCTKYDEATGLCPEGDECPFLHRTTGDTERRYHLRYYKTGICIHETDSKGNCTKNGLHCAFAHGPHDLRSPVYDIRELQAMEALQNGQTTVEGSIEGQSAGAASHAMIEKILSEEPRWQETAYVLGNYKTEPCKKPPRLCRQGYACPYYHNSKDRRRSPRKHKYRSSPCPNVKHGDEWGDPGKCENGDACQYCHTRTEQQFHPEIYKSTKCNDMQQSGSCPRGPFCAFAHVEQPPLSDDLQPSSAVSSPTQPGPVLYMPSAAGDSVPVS
Strand	bound/input enrichment
CACGCUGGUGCCCCGGAAGACGCCUCGCAAGAGGAGGAAUCUGUUCUCUGGACGAUAUUAAUCCGCAUUUUGAAACUGGUACUUGAAAUUCUCUUUUGAGUCGUUGACCACACUCUGGGA	0.15 ratio
CCAGAUGACCGGUCGCAGGGAGCAGCCAUUGGGGGGCGGCCAGGACUGCCUGGCCCAGAGCACCGCCCUGGCACAGAAUCUCAGCCUUCGUCGCCUUCUCCAACCCCAUCACCACCCCCA	0.173 ratio
UUGUGCAGAGCCCAACAUGAGCUUCAUUUCCAAGCUGCCACCUAUCUCUGCCUCCUGCGCCGCAUCCGGAAACAUGUGGCCCUACAUCAGGAAUUUCAUGGCAAGGGAGAUACAACUCGU	0.0827 ratio
AGGAUAGUAAGUUCAGCUAAUGAACAAAAAAGAUUUGAGUUCUUGGUUUGGGCUAAAACUACCGAGAGAUCAUGCCCUUUUGUACGGUGCAGGUUAUUGUCAUUCGACCGAUAACUUAUU	0.113 ratio
AUAUGACUAGCAAGCUAGCUGUUUUUAAUCUCUUCUGCAAGUUUGGUGAUCCGUGUGGUUCCGCCGAGAUAUUAAAAUUAUUAAAAAUACUAUGUUGAUUUCAGAAGAGACUAGCUUUGU	1.45 ratio
UUUUCCUUCAACCCCAAGCUGGAUAAGGAAGAACGGGAGCAGGGCUGGUUGCUGGUUGACCUCCGUGAAGAAUACAAGCGAAUGGGCCUCCCUGAUAAUUAUUGGCAGCUCAGCGAUGUG	0.134 ratio
GACCAAAGUUUUUGAUCAUAUGUUUUGAGAUAAUUGUAUGAUCAAGUUGUAUAUUUAAGUCUCCGUGUUUGAAAUUGCAGUUAUAAUUGUUCAUAGGAUUGCUAUUUAAGAUGAUUUGAA	0.369 ratio
GAAUUCAUGCAUGAGACCCAUGAUGGAGUCCAGGAUAUGGCUUGUGAUACUUUCAUUAAAACCGCCCAAAAAUGCCGCAGGCAUUUCGUUCAGGUUCAGGUUGGAGAAGUGAUGCCAUUU	0.178 ratio

Some of these lines once more (series 2):
Modification	mean fluorescence intensity [a.u.]
2'F-ANA at 3 4 5 6 10 12 13 14 15	53.3
2'F-ANA at 1 2 5 7 11 12 13 14	49.5
2'F-ANA at 4 6 7 9 11 12 14	96.6
2'F-ANA at 3 4 5 6 12 13 14	60
2'F-ANA at 1 4 5 7 10 13	43.3
